Experimental data from different studies.
Compare with care: the assays were run in different laboratories. “And” joins repeats or separate records; there may be more than shown. Numbers after ± are the reported error.
Thioredoxin glutathione reductase: Thioredoxin glutathione reductase (Schistosoma mansoni, UniProt Q962Y6)
histidine kinase ComD: histidine kinase ComD (Streptococcus pneumoniae serotype 4, UniProt A0A0H2US84)
Chain of UniProt P81908 (whole entry, looked up): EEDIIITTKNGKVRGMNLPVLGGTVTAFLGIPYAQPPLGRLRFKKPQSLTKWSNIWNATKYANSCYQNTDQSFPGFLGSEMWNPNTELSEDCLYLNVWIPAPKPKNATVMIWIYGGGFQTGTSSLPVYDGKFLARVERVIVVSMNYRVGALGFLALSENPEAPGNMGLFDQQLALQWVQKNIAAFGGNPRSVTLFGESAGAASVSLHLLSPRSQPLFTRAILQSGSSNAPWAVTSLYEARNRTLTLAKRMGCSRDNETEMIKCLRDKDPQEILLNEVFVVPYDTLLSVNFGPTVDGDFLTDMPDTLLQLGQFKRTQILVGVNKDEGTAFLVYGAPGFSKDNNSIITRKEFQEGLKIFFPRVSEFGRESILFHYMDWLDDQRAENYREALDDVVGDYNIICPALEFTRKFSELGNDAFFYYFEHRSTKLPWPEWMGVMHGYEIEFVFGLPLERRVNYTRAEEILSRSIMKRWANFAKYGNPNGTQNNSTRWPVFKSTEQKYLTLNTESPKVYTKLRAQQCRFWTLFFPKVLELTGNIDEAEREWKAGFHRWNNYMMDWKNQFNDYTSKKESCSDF
Chain of UniProt O88704 (whole entry, looked up): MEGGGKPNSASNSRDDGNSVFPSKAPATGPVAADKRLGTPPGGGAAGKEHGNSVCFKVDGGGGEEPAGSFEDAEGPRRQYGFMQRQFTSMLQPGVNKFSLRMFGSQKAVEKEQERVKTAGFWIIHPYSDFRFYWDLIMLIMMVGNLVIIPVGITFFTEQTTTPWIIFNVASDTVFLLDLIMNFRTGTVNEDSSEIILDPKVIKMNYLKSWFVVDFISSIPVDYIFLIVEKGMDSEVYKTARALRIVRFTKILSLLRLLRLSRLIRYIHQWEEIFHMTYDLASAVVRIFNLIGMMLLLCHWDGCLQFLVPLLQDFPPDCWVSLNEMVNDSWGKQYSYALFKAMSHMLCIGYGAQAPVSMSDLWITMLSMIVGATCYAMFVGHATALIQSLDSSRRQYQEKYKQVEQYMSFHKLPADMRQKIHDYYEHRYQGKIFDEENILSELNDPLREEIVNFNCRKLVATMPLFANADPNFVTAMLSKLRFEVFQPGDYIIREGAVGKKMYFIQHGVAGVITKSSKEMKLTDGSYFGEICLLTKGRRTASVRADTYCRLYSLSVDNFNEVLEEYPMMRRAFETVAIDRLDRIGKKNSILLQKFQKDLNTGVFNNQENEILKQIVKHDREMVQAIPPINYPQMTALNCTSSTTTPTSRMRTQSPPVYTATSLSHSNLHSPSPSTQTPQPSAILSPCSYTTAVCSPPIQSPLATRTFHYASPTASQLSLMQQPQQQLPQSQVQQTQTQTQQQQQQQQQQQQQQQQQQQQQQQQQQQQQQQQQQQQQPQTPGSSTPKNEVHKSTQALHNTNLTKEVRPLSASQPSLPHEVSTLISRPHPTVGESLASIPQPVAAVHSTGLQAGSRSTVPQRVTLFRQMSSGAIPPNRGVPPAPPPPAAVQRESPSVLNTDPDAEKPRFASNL
Chain of UniProt P04191 (whole entry, looked up): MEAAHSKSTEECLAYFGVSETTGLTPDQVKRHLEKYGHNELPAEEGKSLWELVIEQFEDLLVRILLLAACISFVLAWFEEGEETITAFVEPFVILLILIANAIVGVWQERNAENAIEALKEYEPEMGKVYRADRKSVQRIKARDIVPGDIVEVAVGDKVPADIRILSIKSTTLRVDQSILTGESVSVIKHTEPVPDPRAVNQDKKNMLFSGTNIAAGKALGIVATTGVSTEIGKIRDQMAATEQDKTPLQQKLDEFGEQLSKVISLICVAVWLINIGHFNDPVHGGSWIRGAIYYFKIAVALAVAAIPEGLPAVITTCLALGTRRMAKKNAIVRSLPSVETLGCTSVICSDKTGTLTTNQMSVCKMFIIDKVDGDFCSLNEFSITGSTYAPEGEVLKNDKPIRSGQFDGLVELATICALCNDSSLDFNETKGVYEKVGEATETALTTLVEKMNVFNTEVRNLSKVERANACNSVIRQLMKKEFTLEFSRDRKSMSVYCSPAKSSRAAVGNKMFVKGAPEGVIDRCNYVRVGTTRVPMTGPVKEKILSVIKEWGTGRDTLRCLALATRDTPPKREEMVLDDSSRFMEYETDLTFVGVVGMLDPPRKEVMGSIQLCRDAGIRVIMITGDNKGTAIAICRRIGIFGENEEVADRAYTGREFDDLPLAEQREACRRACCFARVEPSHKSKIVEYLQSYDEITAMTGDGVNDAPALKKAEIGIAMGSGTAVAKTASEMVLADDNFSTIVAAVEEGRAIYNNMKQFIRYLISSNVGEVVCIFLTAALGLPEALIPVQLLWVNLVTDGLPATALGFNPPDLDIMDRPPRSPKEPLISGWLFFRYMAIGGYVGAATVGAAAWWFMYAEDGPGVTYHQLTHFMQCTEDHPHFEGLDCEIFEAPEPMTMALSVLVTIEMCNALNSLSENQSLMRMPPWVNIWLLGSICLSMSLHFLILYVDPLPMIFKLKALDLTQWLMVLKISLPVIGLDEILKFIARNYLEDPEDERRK
Chain of UniProt Q388M1 (whole entry, looked up): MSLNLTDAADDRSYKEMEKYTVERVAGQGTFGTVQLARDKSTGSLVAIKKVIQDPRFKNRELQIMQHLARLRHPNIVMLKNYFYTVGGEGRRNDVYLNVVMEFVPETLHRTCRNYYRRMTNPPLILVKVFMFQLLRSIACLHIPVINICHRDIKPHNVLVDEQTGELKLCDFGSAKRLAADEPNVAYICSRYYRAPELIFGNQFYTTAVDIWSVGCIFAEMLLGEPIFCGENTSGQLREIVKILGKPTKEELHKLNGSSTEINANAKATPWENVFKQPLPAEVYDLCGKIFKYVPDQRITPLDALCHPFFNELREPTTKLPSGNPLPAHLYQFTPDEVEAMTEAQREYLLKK
Chain of UniProt P04062 (whole entry, unmodified, looked up): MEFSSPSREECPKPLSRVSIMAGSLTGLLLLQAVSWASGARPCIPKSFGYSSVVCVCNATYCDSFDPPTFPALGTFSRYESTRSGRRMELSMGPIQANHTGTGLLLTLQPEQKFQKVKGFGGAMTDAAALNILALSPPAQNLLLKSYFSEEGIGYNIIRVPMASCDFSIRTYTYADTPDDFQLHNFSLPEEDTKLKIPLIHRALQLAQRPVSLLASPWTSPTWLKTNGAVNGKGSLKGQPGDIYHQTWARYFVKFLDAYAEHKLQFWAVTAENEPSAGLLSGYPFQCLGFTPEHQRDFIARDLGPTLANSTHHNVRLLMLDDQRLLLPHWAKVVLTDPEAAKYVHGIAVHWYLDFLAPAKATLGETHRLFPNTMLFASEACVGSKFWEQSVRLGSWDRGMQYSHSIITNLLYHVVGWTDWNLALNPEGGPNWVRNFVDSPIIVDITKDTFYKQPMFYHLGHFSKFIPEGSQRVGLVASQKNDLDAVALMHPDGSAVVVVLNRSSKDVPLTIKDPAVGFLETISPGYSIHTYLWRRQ
Chain of UniProt O35678 (whole entry, looked up): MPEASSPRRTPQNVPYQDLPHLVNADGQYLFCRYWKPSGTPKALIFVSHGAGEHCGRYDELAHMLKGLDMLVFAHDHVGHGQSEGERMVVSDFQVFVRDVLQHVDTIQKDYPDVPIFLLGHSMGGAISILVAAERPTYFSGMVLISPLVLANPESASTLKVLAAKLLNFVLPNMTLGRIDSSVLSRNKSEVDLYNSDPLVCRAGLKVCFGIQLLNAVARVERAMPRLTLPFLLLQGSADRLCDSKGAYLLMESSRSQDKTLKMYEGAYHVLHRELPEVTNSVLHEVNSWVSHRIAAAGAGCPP
Chain of UniProt P06873 (whole entry, looked up): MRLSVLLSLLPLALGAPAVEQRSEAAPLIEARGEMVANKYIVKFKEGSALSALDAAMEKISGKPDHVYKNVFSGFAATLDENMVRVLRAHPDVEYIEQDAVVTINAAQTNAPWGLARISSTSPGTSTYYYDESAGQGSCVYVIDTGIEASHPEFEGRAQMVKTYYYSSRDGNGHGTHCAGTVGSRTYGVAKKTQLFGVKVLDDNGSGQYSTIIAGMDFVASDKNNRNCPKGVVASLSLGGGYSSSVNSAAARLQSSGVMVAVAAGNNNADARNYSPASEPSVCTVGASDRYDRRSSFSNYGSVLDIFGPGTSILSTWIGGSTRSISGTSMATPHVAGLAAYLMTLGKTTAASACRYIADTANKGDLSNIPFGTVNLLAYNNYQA
Chain of UniProt P04637 (whole entry, unmodified, looked up): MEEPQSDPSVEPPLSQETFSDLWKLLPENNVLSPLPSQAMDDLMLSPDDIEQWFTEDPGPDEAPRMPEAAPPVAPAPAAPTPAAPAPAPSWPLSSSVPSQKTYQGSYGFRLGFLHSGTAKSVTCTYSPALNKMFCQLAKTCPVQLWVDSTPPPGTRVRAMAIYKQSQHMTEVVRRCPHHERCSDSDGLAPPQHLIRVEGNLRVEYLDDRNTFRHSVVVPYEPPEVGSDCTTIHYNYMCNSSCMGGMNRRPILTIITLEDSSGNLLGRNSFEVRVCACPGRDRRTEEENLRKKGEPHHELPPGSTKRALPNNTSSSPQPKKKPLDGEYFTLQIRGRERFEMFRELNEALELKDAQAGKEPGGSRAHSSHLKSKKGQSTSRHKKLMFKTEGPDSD
Chain of UniProt Q2PAY2 (whole entry, looked up): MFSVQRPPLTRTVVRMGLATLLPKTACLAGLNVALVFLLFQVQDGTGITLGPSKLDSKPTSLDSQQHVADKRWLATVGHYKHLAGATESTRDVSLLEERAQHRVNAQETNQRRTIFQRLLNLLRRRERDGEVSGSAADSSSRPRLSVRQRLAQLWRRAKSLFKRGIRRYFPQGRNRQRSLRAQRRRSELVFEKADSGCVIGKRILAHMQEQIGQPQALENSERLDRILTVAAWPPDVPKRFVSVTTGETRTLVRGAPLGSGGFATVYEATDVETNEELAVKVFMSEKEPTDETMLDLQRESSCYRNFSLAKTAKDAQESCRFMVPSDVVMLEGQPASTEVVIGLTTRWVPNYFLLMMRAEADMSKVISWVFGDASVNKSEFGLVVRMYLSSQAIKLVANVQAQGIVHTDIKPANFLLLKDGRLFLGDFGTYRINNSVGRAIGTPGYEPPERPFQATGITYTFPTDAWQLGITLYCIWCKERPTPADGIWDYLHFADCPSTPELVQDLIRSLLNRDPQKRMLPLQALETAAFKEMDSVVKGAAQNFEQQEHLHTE

SMILES	target	test	test system	setting	IC50
C/C=C1\NC(=O)[C@@H](NC(=O)[C@@H](NC(=O)C/C(=C/Cl)CC)C(C)C)[C@@H](C)OC(=O)[C@H](C(C)C)NC(=O)[C@H](Cc2ccc(O)cc2)N(C)C(=O)[C@H](Cc2ccccc2)N2C(=O)[C@H](CC[C@H]2O)NC1=O	Proteinase K (PROK, Engyodontium album, UniProt P06873)	enzyme activity, inhibitor, fluorescence		pH 7.4	> 5 µM
CC(C)C[C@H](NC(=O)N1CCOCC1)C(=O)N[C@H](/C=C/S(=O)(=O)c1ccccc1)CCc1ccccc1	Papain (Carica papaya, UniProt P00784)	enzyme activity, inhibitor, fluorescence		pH 5.5, with preincubation	0.011 µM
[O-]/[N+](=C\c1ccc2cccc(O)c2n1)Cc1ccccc1	Cholinesterase (BCHE, Homo sapiens, UniProt P06276)	inhibitor, Ellman method			0.0011 ± 0.00031 µM
CC/C(=C(\c1ccc(O)cc1)c1ccc(OCCN(C)C)cc1)c1ccccc1	Sodium channel protein type 2 subunit alpha (SCN2A, Homo sapiens, UniProt Q99250)	ion current, inhibitor, patch clamp			1.2 µM
CCCCCCCC(=O)SCC/C=C/[C@@H]1CC(=O)NCc2nc(cs2)C2=N[C@@](C)(CS2)C(=O)N[C@@H](C(C)C)C(=O)N1	Protein deacetylase HDAC6 (HDAC6, Homo sapiens, UniProt Q9UBN7)	enzyme activity, inhibitor, fluorescence			> 3 µM
CCCCCC(=O)N[C@H](C(=O)N[C@@H](CCS(C)(=O)=O)C(=O)N[C@@H](CC(C)C)C(=O)[C@@]1(C)CO1)C(C)C	PSMB5 (Oryctolagus cuniculus, UniProt G1T4Q9)	chymotrypsin-like activity, inhibitor, fluorogenic substrate	rabbit muscle 26S proteasome		0.0225 µM
CC[C@H](C)[C@H](NC(=O)[C@@H]1CCCN1C(=O)[C@H](CC(=O)O)NC(=O)[C@H](CCC(N)=O)NC(=O)[C@H](CCCNC(=N)N)NC(=O)[C@H](CCCNC(=N)N)NC(=O)[C@H](CCC(N)=O)NC(=O)[C@H](CCCNC(=N)N)NC(=O)[C@H](CCCNC(=N)N)NC(=O)[C@H](CCCCN)NC(=O)[C@H](CCCCN)NC(=O)[C@@H](N)CCCNC(=N)N)C(N)=O	human 20S proteasome	chymotrypsin-like activity, inhibitor		with: SDS 0.005%	0.37 µM
CC(=O)OC[C@H]1O[C@@H]([S-])[C@H](OC(C)=O)[C@@H](OC(C)=O)[C@@H]1OC(C)=O.CCP(CC)CC.[Au+]	Thioredoxin glutathione reductase	enzyme activity, inhibitor, absorbance		with preincubation	0.02 µM
COc1cc2c(cc1O)CC[n+]1cc3c(OC)c(OC)ccc3c(C)c1-2	D(4) dopamine receptor (DRD4, Homo sapiens, UniProt P21917)	calcium mobilization, antagonist, FLIPR	HEK293T with Galpha15	10 min preincubation, D4 receptor, with: dopamine at EC50	8.4 µM
[O-][n+]1c(CCl)nc2cccc3c2c1-c1ccccc1-3	TP53/Luciferin 4-monooxygenase (Homo sapiens, UniProt P04637+P08659, D436G/I423L/L530R)	p53 DNA binding, inhibitor, luciferase complementation			6.1 µM
N#CCCc1ccc2c(c1)-c1[nH]c3ccc([N+](=O)[O-])cc3c1CC(=O)N2	Putative glycogen synthase kinase (Leishmania major, UniProt Q4QE15, D105E/Y102F)	enzyme activity, inhibitor		90 min, 30 °C, with: ATP 2 µM	0.87 µM
O=C(NCCCCCn1ccc2ccc(F)cc21)Oc1ccccc1C(=O)O	Cholinesterase (BCHE, Equus caballus, UniProt P81908)	enzyme activity, inhibitor, HPLC			2.3 µM
Oc1cc2c(cc1O)[C@H]1c3ccccc3CN[C@@H]1CC2 (racemic)	Carbamate kinase (Giardia intestinalis, UniProt A8BB85)	enzyme activity, ATP luminescence			20.6 µM
Cn1c(=O)c2c(nc(CN3CCC(C(N)=O)CC3)n2CCCc2ccccc2)n(C)c1=O	Aldehyde dehydrogenase 1A1 (ALDH1A1, Homo sapiens, UniProt P00352)	enzyme activity, inhibitor, absorbance		pH 7.5	2 µM
O=C(OC(C(F)(F)F)C(F)(F)F)N1CCN(Cc2cccc(Oc3ccccc3)c2)CC1	Monoglyceride lipase (Mgll, Mus musculus, UniProt O35678)	competitive ABPP	mouse brain membrane proteome	with: FP-Rh probe	0.0076 µM
COC(=O)[C@@]1(O)C[C@H]2O[C@]1(C)n1c3ccccc3c3c4c(c5c6ccccc6n2c5c31)C(=O)NC4	Leucine-rich repeat serine/threonine-protein kinase 2 (LRRK2, Homo sapiens, UniProt Q5S007)	LRRKtide phosphorylation, inhibitor		25 °C, with: 1 µM ATP	~0.025 µM
O=C1Nc2ccc3ncsc3c2/C1=C/c1cnc[nH]1	Serine/threonine-protein kinase 24 (STK24, Homo sapiens, UniProt Q9Y6E0)	enzyme activity, inhibitor, radiometric			0.02 µM
CC1=C(C(=O)NC(=O)c2cnccn2)C(c2cccc(Cl)c2)NC(=O)N1 (stereo not drawn)	Cholinesterase (BCHE, Equus caballus, UniProt P81908)				4.96 ± 0.01 µM

SMILES	target	test	test system	setting	IC50
CC[C@H](C)[C@H](NC(=O)[C@H](CCCNC(=N)N)NC(=O)[C@H](CO)NC(=O)[C@H](CC(C)C)NC(=O)[C@H](CCCNC(=N)N)NC(=O)[C@H](CCSC)NC(=O)[C@H](C)N)C(=O)N[C@@H](Cc1ccccc1)C(=O)N[C@@H](CCCNC(=N)N)C(=O)N[C@@H](CC(=O)O)C(=O)N[C@@H](Cc1ccccc1)C(=O)N[C@@H](CC(C)C)C(=O)N[C@@H](CC(C)C)C(=O)N[C@@H](CCC(N)=O)C(=O)N[C@@H](CCCNC(=N)N)C(=O)N[C@@H](CCCCN)C(=O)N[C@@H](CCCCN)C(=O)O	histidine kinase ComD		Streptococcus pneumoniae		> 1 µM
O=C(O)c1ccc2cccnc2n1	Thioredoxin glutathione reductase	enzyme activity, inhibitor, absorbance		with preincubation	1100 µM
[N-]=[N+]=Nc1ccc(C(=O)CSC[C@H](NC(=O)CC[C@H](N)C(=O)O)C(=O)NCC(=O)O)cc1	ERRα (human)	reporter gene, antagonist, luciferase reporter qHTS			0.53 µM
O=C(O)c1ccccc1-c1c2ccc(=O)c([As]3SCCS3)c-2oc2c([As]3SCCS3)c(O)ccc12	Tyrosine-protein phosphatase non-receptor type 11 (PTPN11, Homo sapiens, UniProt Q06124, V368C)	enzyme activity, inhibitor	crude Escherichia coli lysate	120 min, 37 °C, with: pNPP	1.3 µM
O=C(O)Cc1ccccc1OC(=O)NCCCCCn1ccc2ccc(F)cc21	Cholinesterase (BCHE, Equus caballus, UniProt P81908)	enzyme activity, inhibitor, HPLC			> 10 µM
CN1C(=O)[C@]23SS[C@@]1(C)C(=O)N2[C@H]1Nc2ccccc2[C@@]1([C@@]12c4ccccc4N[C@@H]1N1C(=O)[C@@]4(C)SS[C@]1(C(=O)N4C)[C@H]2O)[C@@H]3O	Histone-lysine N-methyltransferase, H3 lysine-79 specific (DOT1L, Homo sapiens, UniProt Q8TEK3)	methyltransferase activity, inhibitor		with: 1 µM [3H]SAM	> 10 µM
C/C=C(/C)C(=O)O[C@H]1C(C)=C2[C@H]([C@@H]1OC(=O)CCCCCCC)[C@@](C)(OC(C)=O)C[C@H](OC(=O)CCCCCCCCCCCN)[C@@]1(O)[C@H]2OC(=O)[C@@]1(C)O	Sarcoplasmic/endoplasmic reticulum calcium ATPase 1 (ATP2A1, Oryctolagus cuniculus, UniProt P04191)	enzyme activity, inhibitor			0.035 ± 0.004 µM
NC(=S)Nc1ccccc1	Thyroid peroxidase (Tpo, Rattus norvegicus, UniProt P14650)	tyrosine iodination, LC-MS/MS	rat thyroid microsomes	with: KI 300 µM, H2O2 40 µM	2.51 µM
CO/C=C(/C(=O)OC)c1ccccc1Oc1cc(Oc2ccccc2C#N)ncn1	ERRα (human)	reporter gene, antagonist, luciferase reporter qHTS			4.86 µM
CCC(C)c1cccc(C(C)CC)c1O (stereo not drawn)	Potassium/sodium hyperpolarization-activated cyclic nucleotide-gated channel 1 (Hcn1, Mus musculus, UniProt O88704)	channel gating (V1/2 shift), inhibitor, two-electrode voltage clamp	Xenopus oocytes		~355 µM and 355 µM
CC[C@H](C)[C@H](NC(=O)[C@H](C)N)C(=O)N[C@@H](CCCNC(=N)N)C(=O)N[C@@H](CCC(N)=O)C(=O)N[C@H](C(=O)N[C@@H](Cc1c[nH]cn1)C(=O)N[C@@H](CC(N)=O)C(=O)N[C@H](C(=O)N[C@@H](Cc1ccccc1)C(=O)N[C@@H](Cc1ccccc1)C(=O)N[C@@H](CC(N)=O)C(=O)N[C@@H](Cc1ccccc1)C(=O)N[C@@H](Cc1ccccc1)C(=O)N[C@@H](CCCCN)C(=O)N[C@@H](CCCNC(=N)N)C(=O)N[C@@H](CCCNC(=N)N)C(=O)O)[C@@H](C)CC)[C@@H](C)O	histidine kinase ComD	reporter gene, antagonist	Streptococcus pneumoniae, TIGR4 comX::lacZ	30 min, 37 °C, with: CSP2 250 nM	> 10 µM
COc1cc2nc(N3CCN(C(=O)c4ccco4)CC3)nc(N)c2cc1OC	Solute carrier organic anion transporter family member 1B1 (SLCO1B1, Homo sapiens, UniProt Q9Y6L6)	transport, inhibitor		10 (unit not given), pre-incubation, with: estrone-3-sulfate	78.9 ± 22.8 µM
COC(=O)[C@@]1(O)C[C@H]2O[C@]1(C)n1c3ccccc3c3c4c(c5c6ccccc6n2c5c31)C(=O)NC4	ROP18 (Toxoplasma gondii, UniProt Q2PAY2)	kinase activity, inhibitor		3 h, room temperature, with: peptide FL-T 1 µM, 60 µM ATP	0.059 µM
C[N+]1(C)CCC(OC(=O)C(c2ccccc2)c2ccccc2)CC1	Lysosomal acid glucosylceramidase (GBA1, Homo sapiens, UniProt P04062, R534H)	enzyme activity, inhibitor		pH 5.9, 1.9 nM enzyme, with: 30 µM resorufin β-glucoside	8.74 µM
CCCCOc1c(Br)cc(C(c2c(O)c3ccccc3oc2=O)c2c(O)c3ccccc3oc2=O)cc1Br	Alpha-glucosidase MAL12 (MAL12, Saccharomyces cerevisiae S288c, UniProt P53341)	enzyme activity, inhibitor, absorbance		pH 6.9	0.62 µM
NC(Cc1cc(O)c(O)cc1O)C(=O)O (racemic)	Trypanothione synthetase (Trypanosoma brucei brucei, UniProt Q586P2)	enzyme activity, BIOMOL Green phosphate release		1 h preincubation	13 ± 3.5 µM
Oc1ccc(-c2cc(Cl)ccc2Cl)cc1	Sulfotransferase 2A6 (Sult2a6, Rattus norvegicus, UniProt P22789)	enzyme activity, inhibitor		6 min, 37 °C, with: DHEA 10 µM	190 µM
Cn1cc(C2=C(c3cn(CCCN)c4ccccc34)C(=O)NC2=O)c2ccccc21	GSK3, short isoform (Trypanosoma brucei, UniProt Q388M1)	enzyme activity, inhibitor		90 min, 30 °C, with: ATP 2 µM	1.34 µM
